Measurements from different studies.
Every numbered part comes from another study and shows a few of its results, in no order.

Study 1 — technique: aptamer microarray, sandwich; molecule type: DNA with 2'F-ANA; medium: in vitro; tested at: 200 nM; with: Cy3 exosite-II aptamer, 400 nM; direction: higher = stronger binding; strand: GGTTGGTGTGGTTGG
Target: Prothrombin, mature alpha-thrombin (F2, Homo sapiens, UniProt P00734)
Setting: whole 15-mer aptamer, many near background
`2'F-ANA at 1 2 4 6 7 8 9 10 11 13`: “mean fluorescence intensity” 54.2 a.u.
For `2'F-ANA at 2 7 9 10 12 13 14 15`, “mean fluorescence intensity” read 91.4 a.u.
Under “mean fluorescence intensity”, `2'F-ANA at 2 3 6 7 8 9` is recorded as 742 a.u.
Under “mean fluorescence intensity”, `2'F-ANA at 1 3 4 5 6 8 9 11 12` is recorded as 108 a.u.
Under “mean fluorescence intensity”, `2'F-ANA at 2 7 8 10 11 15` is recorded as 121 a.u.
`2'F-ANA at 1 4 5 7 8 11 12 13 14 15`: “mean fluorescence intensity” 46.4 a.u.
For `2'F-ANA at 11 13`, “mean fluorescence intensity” read 483 a.u.
`2'F-ANA at 1 2 3 4 5 7 11 15`: “mean fluorescence intensity” 52.7 a.u.
For `2'F-ANA at 1 7 11 13`, “mean fluorescence intensity” read 150 a.u.
`2'F-ANA at 1 2 4 5 7 8 9 12` — result for “mean fluorescence intensity”: 134 a.u.
`2'F-ANA at 3 5 6 8 11 12 13 15`: “mean fluorescence intensity” 158 a.u.
`2'F-ANA at 4 5 6 7 8 11 12 13 15`: “mean fluorescence intensity” 156 a.u.
`2'F-ANA at 1 5 7 9 11`: “mean fluorescence intensity” 103 a.u.
`2'F-ANA at 1 2 3 4 8 9 12 14`: “mean fluorescence intensity” 88.9 a.u.
For `2'F-ANA at 4 5 6 8 10 12`, “mean fluorescence intensity” read 49.5 a.u.
For `2'F-ANA at 1 7 8 9 12 13 14`, “mean fluorescence intensity” read 73.4 a.u.
`2'F-ANA at 5 8 10 11 12 13` — result for “mean fluorescence intensity”: 47.7 a.u.
For `2'F-ANA at 2 4 6 8 11 13`, “mean fluorescence intensity” read 183 a.u.
`2'F-ANA at 1 3 5 11 12 14 15` — result for “mean fluorescence intensity”: 49 a.u.

Study 2 — technique: RNA Bind-n-Seq; molecule type: RNA; medium: in vitro; tested at: 365 nM; relative to: no-protein control; direction: higher = stronger binding
Target: RNA binding protein fox-1 homolog 2, RRM domain, GST-SBP tag (RBFOX2, Homo sapiens, UniProt O43251-10, residues 100-194)
Setting: natural RNA segment, single round, ends assumed
Constant ends, left off below: GGGAGUUCUACAGUCCGACGAUC … UGGAAUUCUCGGGUGCCAA
Target sequence (chain): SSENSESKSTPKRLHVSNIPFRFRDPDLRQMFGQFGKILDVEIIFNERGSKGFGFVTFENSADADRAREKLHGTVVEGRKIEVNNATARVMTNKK
Under “RBNS enrichment (R)”, `UUGCUACAAGCUAUAGCUAAUGUGCUGAGCUUGUGCCUUGGUGAUUGAUUGAUUGAUUGACUGAUUGUUUUAACUGAUUACUGUAGAUCAACCUGAUGAUUUGUUUGUUU` is recorded as 2.5.
`UGGCUGUUUGAACAGCAGCGUUUCAUAGGAAGAGAAAAAAAGAUCAAUCUUGUAUUUUCUGACCACAUAAAGGCUUCUUCUCUUUGUAAUAAAGUAGAAAAGCUCUCCUC` — result for “RBNS enrichment (R)”: 0.265.
`GCCUCUGGAGGUGCCUUUGGCCACAUGUGCUGUGCUGUUUGUCUCCUCGACAGGGAGCCUGUCCACCAGCAGGCUGCGGUCCCAGCGGGUGCGUCUGCAGCUCCUCCCCU` — result for “RBNS enrichment (R)”: 0.185.
`UCGGAGAGUGCUGCUAAAAUUGGAUUGGUGUGAUCUUUUUGGUAGUUGUAAUUUAACAGAAAAACACAAAAUUUCAACCAUUCUUAAUGUUACGUCCUCCCCCCACCCCC` — result for “RBNS enrichment (R)”: 0.302.
`UCUGGCUUUGACUGACUCCUGGGGGAAGCUGCUGUGGCCCAGCUCCUCCCUCCUCAUCUUGCCGUCCCACUGGGGUGCUAGGAAAUCCAGGAUGACGGCUGCUCUGAUAU`: “RBNS enrichment (R)” 2.6.
For `GGAGACCUUGACAGAGUGGUCAGCUGGAUCAGUGUGCCCUAAACUAAGUAAAAUCAUUGUUCCAUUCUUAUACAUUUGAAUGUGAUGGUGACCUUUGAAACAAUUCCAGG`, “RBNS enrichment (R)” read 0.526.
`CGAUGCGACCAAGUGUCAGGCUCUAUGUGCCAUGCUUCAGAGUGCCCACCUUGAGAGAAGCCACCUUGUAGUCAGAGUGAGCAGACACAGUUACGUCAAACAUACAUCUC`: “RBNS enrichment (R)” 0.536.
Under “RBNS enrichment (R)”, `UGUGUGAUCCUUCCCCUCCCUGUCGCCCACUCCUCCCUCCUCUGGCUAUCCUACCCUGUCUGUGGGCUCUUUUACUACCAGCCUAUGCUGUGGGACUGUCAUGGCAUUUA` is recorded as 0.619.
Under “RBNS enrichment (R)”, `CGAGUAAAGUAUUAUGUUUCUUCUUGUCACCCCAGUUCCCUUGGUGGCAACCCCAGACCCAACCCAUGCCCCUGACAGAUCUAGUUCUCUUCUCCUGUGUUCCCUUUGAG` is recorded as 0.559.
`UGUUGUUUAGAAAUUUGCAAGGGCUUUUUUUCAGCAAUGCCACCAGCAGAUUAUAAUCUUGUCAACAGUUCAUUGUCUCCUCUUAGUACCACCAGUCACCUGCAUCAUUC` — result for “RBNS enrichment (R)”: 4.36.
`AGAUGGUAGUGGCAAUAGCAGCGAUAGUUGCGUCAGUGCUAACUGCUGCUGCUGCCCGUUCUGUUGGCGGCUGCUGGCCAAGUGUGCACACUUAGCCCUGGUUGAGGUGC` — result for “RBNS enrichment (R)”: 0.21.
`GCCAAAACAAACUGGUUCCAUGCCUUCCUUGCAGUGAACGUUACAAUGGAUGUGGUUGUCAAUGUGAAUAGCUUAGAGUACUACAAAGGGUAAGCUAACUGAAUGCCUUG`: “RBNS enrichment (R)” 0.516.

Study 3 — technique: protein-binding microarray; molecule type: double-stranded DNA, one strand shown; medium: in vitro; tested at: 250 nM; setting: 60-bp whole probe; with: salmon DNA 0.4 mg/ml; relative to: random background probes; direction: higher = stronger binding; constant ends, left off below: GCCTAGCAC … GTCTTGATTCGCTTGACGCTGCTG
Target: Interferon regulatory factor 5, full length, phosphomimetic (IRF5, Homo sapiens, UniProt Q13568-2, residues 1-514, K96S/S451D/S453D/S456D/S462D)
`TCAATTGTGCAATCTTAAACTGTGCTA` has a log fluorescence of 0.536 z-score.
For `GACGATATCGGGTATCTAGACGTGCTA`, the log fluorescence was 1.83 z-score.
With `CATTCTCTGTTTATGTCTGGGTGCTAG` the log fluorescence was 1.27 z-score.
The log fluorescence of `TTAGATCTCAGGTTCGATTAGTGCTAG` is reported as 0.347 z-score.
`TACGGTTTCCTTTTCCTGACGTGCTAG` has a log fluorescence of 1.21 z-score.
With `TCATTTTTCTGAACCATACTGTGCTAG` the log fluorescence was 0.969 z-score.
`GACGATTTCGGATTTCGAGACGTGCTA` has a log fluorescence of 2.96 z-score.
For `CCTGGCTTCATGTTGCTCTCCGTGCTA`, the log fluorescence was -0.254 z-score.
`TTAGGTCTCCTACTGCTCTAGTGCTAG` has a log fluorescence of -0.197 z-score.
The log fluorescence of `ACATTTTTTTCATTATTGTTGTGCTAG` is reported as 1.96 z-score.
The log fluorescence of `TCACATCTCTGTCCGTGACTGTGCTAG` is reported as 0.228 z-score.
The log fluorescence of `GACCATATCAGTTTCGAGACGTGCTAG` is reported as 5.91 z-score.
For `GACGGTCTACTTATCCTGACGTGCTAG`, the log fluorescence was 0.172 z-score.
With `AACGGTTTCGGTATCGGGACGTGCTAG` the log fluorescence was 9.98 z-score.
The log fluorescence of `TTAGGTTTCCTACTGCCTTAGTGCTAG` is reported as 0.249 z-score.
`TTAGGTTCCGGTTTCGGGTAGTGCTAG` gave a log fluorescence of 7.33 z-score.
`TTCGGTATCGGGTATCGGTTAGTGCTA` gave a log fluorescence of 7.73 z-score.
With `AAACTTACCTCACTCGTTAAGTGCTAG` the log fluorescence was 0.426 z-score.
With `TGCCCTCTAACTTCCCAATGGTGCTAG` the log fluorescence was -0.216 z-score.
For `GACGCTCTCCTACTGCTGACGTGCTAG`, the log fluorescence was -0.295 z-score.
`TTAGTTTTCGGGTTTCGGTTAGTGCTA` gave a log fluorescence of 9.61 z-score.
`CCTCCCTCTCCCGGAGTTCCGTGCTAG` has a log fluorescence of -0.351 z-score.
`CTAGATTTCAGACTGGATTAGTGCTAG` gave a log fluorescence of 0.122 z-score.
For `TTAGAACTGAGACTGGATGAGTGCTAG`, the log fluorescence was -0.151 z-score.

Study 4 — technique: protein binding microarray; molecule type: double-stranded DNA, one strand shown; medium: in vitro; tested at: not given; relative to: not given; direction: higher = stronger binding
Target: Histone acetyltransferase KAT6A, winged helix 1, GST fusion (KAT6A, Homo sapiens, UniProt Q92794, residues 1-85)
Setting: 8-mer, flanks averaged, mean of 2 arrays, mostly near background
Target sequence (chain): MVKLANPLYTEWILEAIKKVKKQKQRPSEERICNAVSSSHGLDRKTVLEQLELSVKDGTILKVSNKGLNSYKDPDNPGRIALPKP
The E-score of `GGGATTCA` is reported as -0.0466.
`CGCAGTCC` has an E-score of 0.13.
The E-score of `CTTCTATA` is reported as -0.159.
The E-score of `ATGACTTA` is reported as -0.229.
With `CCCCGAGC` the E-score was 0.0671.
`CCTTGACC` has an E-score of 0.0651.
The E-score of `CAGTGAAA` is reported as 0.000185.
`AAGCGGAA` gave an E-score of 0.215.
With `AAGTGGGT` the E-score was -0.0993.
For `AGCTCCAA`, the E-score was -0.258.
`CGACCCCC` has an E-score of 0.157.
The E-score of `GAAACACC` is reported as -0.00696.
With `AGCTAACG` the E-score was -0.0464.
The E-score of `GTGTGTAA` is reported as -0.126.
`ATCCTAGG` gave an E-score of -0.0872.
The E-score of `CATGATGC` is reported as 0.0292.
The E-score of `TAAAAAAA` is reported as -0.111.
For `CAAAATTC`, the E-score was -0.0958.
For `AAGAGTAC`, the E-score was -0.097.
The E-score of `ATGTTCTG` is reported as -0.113.
The E-score of `TCTAGACA` is reported as -0.107.
The E-score of `AGTCGGCA` is reported as 0.148.
`GTGTAGTA` has an E-score of -0.204.
The E-score of `GGCGGCGA` is reported as 0.422.
For `ACTTGAGA`, the E-score was -0.177.

Some of these lines once more (study 1):
`2'F-ANA at 1 3 5 11 12 14 15` — result for “mean fluorescence intensity”: 49 a.u.
For `2'F-ANA at 4 5 6 8 10 12`, “mean fluorescence intensity” read 49.5 a.u.
`2'F-ANA at 1 4 5 7 8 11 12 13 14 15`: “mean fluorescence intensity” 46.4 a.u.
`2'F-ANA at 1 2 3 4 8 9 12 14`: “mean fluorescence intensity” 88.9 a.u.
`2'F-ANA at 5 8 10 11 12 13` — result for “mean fluorescence intensity”: 47.7 a.u.
For `2'F-ANA at 11 13`, “mean fluorescence intensity” read 483 a.u.
For `2'F-ANA at 1 7 8 9 12 13 14`, “mean fluorescence intensity” read 73.4 a.u.
Under “mean fluorescence intensity”, `2'F-ANA at 2 7 8 10 11 15` is recorded as 121 a.u.
`2'F-ANA at 1 2 4 6 7 8 9 10 11 13`: “mean fluorescence intensity” 54.2 a.u.
